Assay results pooled from the literature.
Lines come from different studies, so protocols differ. Values joined by “and” are separate records of one study, mostly repeats; a detail may differ. Numbers after ± are the reported error.
Oprm1: Mu-type opioid receptor (Oprm1, Rattus norvegicus, UniProt P33535)
Sequence of UniProt P33535 (whole entry, looked up): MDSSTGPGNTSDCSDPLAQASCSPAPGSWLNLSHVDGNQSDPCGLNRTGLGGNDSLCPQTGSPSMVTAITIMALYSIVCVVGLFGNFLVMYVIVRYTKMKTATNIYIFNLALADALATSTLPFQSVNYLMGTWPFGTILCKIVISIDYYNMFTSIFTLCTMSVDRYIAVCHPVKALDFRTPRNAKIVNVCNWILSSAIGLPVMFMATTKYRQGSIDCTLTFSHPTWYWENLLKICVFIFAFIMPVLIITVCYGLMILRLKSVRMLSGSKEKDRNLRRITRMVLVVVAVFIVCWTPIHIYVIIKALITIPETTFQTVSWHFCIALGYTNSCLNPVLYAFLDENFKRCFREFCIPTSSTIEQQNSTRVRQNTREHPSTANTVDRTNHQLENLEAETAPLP
Uncharacterized hydrolase SAUSA300_2518: Uncharacterized hydrolase SAUSA300_2518 (Staphylococcus aureus, UniProt Q2FDS6)
KEAP1: Kelch-like ECH-associated protein 1 (KEAP1, Homo sapiens, UniProt Q14145)
Sequence of UniProt Q14145 (whole entry, looked up): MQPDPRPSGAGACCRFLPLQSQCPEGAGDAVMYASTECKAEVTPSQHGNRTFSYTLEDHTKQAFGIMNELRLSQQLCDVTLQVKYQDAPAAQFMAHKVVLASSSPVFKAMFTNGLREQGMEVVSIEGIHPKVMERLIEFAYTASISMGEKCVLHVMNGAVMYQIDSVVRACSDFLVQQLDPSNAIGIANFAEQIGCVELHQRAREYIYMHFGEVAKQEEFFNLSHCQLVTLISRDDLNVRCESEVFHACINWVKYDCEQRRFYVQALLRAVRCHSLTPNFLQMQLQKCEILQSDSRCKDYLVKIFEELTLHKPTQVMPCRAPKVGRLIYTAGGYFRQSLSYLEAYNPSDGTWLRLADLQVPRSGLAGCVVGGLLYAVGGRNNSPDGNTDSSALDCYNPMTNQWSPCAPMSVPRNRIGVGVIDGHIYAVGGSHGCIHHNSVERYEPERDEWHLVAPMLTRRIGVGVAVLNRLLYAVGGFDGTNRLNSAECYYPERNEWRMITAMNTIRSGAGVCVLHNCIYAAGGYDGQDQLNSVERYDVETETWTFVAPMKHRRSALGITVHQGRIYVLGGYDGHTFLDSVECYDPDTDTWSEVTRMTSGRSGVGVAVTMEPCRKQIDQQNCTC
lasR: Transcriptional activator protein LasR (lasR, Pseudomonas aeruginosa, UniProt P25084)
sdiA: Regulatory protein SdiA (sdiA, Escherichia coli, UniProt P07026)
Sequence of UniProt P07026 (whole entry, looked up): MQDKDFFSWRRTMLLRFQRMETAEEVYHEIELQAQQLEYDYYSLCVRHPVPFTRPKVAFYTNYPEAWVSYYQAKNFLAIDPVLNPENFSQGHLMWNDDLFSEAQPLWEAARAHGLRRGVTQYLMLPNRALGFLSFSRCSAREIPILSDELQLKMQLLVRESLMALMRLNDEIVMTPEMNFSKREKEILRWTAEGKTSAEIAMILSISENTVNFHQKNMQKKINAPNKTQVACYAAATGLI
Sequence of UniProt Q9UM07 (whole entry, looked up): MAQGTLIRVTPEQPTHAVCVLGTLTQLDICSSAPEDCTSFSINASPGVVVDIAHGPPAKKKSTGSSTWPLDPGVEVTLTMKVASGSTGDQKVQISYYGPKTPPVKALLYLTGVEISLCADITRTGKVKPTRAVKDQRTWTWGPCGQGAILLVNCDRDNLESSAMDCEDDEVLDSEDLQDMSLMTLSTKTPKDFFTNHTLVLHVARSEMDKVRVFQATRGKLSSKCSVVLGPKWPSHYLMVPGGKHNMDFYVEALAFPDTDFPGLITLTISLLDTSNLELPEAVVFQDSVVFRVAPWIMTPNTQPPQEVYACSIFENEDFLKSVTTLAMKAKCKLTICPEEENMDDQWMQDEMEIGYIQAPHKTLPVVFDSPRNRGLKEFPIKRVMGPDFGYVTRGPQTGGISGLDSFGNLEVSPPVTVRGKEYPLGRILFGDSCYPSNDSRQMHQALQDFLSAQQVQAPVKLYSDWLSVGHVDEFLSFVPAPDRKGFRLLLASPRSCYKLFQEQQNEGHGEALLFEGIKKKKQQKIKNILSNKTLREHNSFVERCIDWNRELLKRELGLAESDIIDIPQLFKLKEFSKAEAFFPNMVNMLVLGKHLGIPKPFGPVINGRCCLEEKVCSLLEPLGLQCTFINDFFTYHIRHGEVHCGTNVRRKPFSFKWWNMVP
Sequence of UniProt Q9UH17 (whole entry, looked up): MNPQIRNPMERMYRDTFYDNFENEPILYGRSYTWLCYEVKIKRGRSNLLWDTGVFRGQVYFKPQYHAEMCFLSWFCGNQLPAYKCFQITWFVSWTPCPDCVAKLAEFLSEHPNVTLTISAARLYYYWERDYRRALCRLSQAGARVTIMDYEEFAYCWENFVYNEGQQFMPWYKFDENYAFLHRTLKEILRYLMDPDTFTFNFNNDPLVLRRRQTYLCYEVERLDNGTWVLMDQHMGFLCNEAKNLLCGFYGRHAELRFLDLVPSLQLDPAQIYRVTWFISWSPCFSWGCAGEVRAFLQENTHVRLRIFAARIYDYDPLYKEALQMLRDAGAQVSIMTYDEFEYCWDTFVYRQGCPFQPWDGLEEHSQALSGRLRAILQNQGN
Sequence of UniProt P41279 (whole entry, looked up): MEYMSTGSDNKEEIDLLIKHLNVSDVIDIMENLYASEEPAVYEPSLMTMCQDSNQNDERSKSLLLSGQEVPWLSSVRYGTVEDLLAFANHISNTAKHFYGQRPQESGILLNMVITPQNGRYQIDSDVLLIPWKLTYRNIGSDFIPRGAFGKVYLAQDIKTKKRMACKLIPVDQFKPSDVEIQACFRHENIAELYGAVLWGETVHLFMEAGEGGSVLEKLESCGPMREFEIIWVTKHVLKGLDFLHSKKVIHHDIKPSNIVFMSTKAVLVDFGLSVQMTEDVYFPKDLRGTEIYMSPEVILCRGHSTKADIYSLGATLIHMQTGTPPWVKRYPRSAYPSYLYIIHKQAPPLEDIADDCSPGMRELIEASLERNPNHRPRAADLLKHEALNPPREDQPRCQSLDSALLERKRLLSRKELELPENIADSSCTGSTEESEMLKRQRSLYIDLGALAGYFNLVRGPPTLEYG
Sequence of UniProt P32238 (whole entry, looked up): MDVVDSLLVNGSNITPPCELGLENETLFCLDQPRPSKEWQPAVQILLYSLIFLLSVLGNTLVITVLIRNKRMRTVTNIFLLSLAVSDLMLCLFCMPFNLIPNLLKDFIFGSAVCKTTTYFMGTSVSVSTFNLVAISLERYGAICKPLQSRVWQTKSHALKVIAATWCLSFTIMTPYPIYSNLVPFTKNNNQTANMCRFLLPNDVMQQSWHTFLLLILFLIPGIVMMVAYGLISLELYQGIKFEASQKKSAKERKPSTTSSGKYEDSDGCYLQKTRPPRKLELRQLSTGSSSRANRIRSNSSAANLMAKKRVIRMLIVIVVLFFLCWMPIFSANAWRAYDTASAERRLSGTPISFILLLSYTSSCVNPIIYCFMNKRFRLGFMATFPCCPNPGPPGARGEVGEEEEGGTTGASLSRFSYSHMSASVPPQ
Sequence of UniProt P21396 (whole entry, looked up): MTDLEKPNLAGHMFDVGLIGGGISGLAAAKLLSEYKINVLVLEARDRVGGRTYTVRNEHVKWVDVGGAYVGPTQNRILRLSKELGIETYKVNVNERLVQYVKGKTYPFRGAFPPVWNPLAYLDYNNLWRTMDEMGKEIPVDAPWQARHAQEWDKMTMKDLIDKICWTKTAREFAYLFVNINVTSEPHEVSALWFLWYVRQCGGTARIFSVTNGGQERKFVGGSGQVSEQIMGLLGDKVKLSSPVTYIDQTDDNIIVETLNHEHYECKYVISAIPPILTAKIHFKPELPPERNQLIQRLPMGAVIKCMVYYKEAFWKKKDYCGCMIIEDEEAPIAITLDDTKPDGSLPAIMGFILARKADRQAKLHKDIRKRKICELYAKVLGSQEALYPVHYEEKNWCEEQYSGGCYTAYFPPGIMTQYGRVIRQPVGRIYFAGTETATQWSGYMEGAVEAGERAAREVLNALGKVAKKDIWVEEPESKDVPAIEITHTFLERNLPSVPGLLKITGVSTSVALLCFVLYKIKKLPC
Sequence of UniProt Q12851 (whole entry, looked up): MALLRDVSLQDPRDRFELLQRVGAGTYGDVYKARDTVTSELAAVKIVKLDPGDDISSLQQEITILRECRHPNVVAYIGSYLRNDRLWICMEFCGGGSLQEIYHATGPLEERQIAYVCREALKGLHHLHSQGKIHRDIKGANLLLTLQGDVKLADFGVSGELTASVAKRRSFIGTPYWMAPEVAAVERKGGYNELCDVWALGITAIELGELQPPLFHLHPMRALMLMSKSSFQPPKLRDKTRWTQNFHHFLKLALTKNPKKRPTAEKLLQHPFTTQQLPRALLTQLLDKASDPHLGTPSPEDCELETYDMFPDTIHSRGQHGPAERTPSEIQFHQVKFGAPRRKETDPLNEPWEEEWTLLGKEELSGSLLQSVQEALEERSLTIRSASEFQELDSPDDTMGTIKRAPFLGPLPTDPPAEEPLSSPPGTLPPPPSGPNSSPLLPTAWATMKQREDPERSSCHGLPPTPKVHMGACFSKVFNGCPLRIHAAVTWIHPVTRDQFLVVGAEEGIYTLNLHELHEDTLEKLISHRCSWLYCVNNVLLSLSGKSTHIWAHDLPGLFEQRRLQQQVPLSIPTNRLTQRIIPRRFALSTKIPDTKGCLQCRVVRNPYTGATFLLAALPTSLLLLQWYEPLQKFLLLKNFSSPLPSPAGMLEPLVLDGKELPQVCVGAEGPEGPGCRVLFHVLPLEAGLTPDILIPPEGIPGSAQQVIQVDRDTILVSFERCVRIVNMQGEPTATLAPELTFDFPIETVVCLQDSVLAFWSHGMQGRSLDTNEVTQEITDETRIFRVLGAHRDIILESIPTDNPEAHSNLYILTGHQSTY
Sequence of UniProt Q91V12 (whole entry, looked up): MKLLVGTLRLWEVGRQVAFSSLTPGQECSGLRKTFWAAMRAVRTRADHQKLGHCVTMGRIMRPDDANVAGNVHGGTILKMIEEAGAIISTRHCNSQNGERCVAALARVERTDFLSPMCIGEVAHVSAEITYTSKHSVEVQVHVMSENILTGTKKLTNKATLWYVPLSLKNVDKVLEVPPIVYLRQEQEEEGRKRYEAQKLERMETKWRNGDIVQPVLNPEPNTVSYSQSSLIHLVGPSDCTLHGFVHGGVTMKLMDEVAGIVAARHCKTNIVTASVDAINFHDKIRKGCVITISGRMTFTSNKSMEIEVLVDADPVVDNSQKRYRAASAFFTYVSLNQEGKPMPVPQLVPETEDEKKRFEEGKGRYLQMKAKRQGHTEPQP

| SMILES | target | assay | test system | setting | how to read | quantity | value |
| --- | --- | --- | --- | --- | --- | --- | --- |
| C[C@@H](O)[C@@H]1CN([C@H](Cc2ccc3ccccc3c2)CN2CCC[C@H]2CN2CCNC[C@@H]2Cc2ccc3ccccc3c2)CCN1CCCC1CCCC1 | Oprm1 | radioligand binding | rat brain membranes | 500 nM, pH 7.5, 25 °C, together with: 0.87 nM [3H]DAMGO |  | remaining binding | 95.9 ± 7.14% |
| Cc1cc(-c2ccc3ccccc3c2)nnc1NCCN1CCN(C)CC1 | Cholecystokinin receptor type A (CCKAR, Homo sapiens, UniProt P32238) | antagonist |  | 10000 nM | baseline: control | activity | 0% |
| N[C@H](C(=O)N1CCCC1)C1CCN(c2nccc3c(-c4ncc(Cl)cc4Cl)cccc23)CC1 | Protein-arginine deiminase type-4 (PADI4, Homo sapiens, UniProt Q9UM07) | enzyme activity |  | 1.536 µM, high-affinity site, together with: Ca2+ 1.5 mM |  | kcat | 0.699 s⁻¹ and 0.667 s⁻¹ |
| Cc1ccc(OS(=O)(=O)F)c(C(=O)Nc2ccncc2)c1 | Uncharacterized hydrolase SAUSA300_2518 | enzyme activity, inhibitor, fluorogenic substrate |  | 1 µM |  | remaining activity | 74.8% and 69.1% and 68.4% |
| CC(C)[C@@H]1NC(=O)[C@H](CCC(=O)O)NC(=O)CNC(=O)[C@H]([C@@H](C)O)NC(=O)[C@H](CCC(=O)O)NC(=O)[C@H](CCC(=O)O)NC(=O)[C@H](CC(=O)O)NC(=O)[C@H](C(C)C)NC(=O)[C@H]([C@@H](C)O)NC(=O)CNC(=O)[C@H](CC(=O)O)NC(=O)[C@H](CC(N)=O)NC(=O)[C@H](Cc2ccc(O)cc2)NC1=O | KEAP1 | Keap1-Nrf2 binding, inhibitor, competitive FP |  | 1.562 µM, 30 min, together with: Nrf2 peptide probe | lower = stronger inhibition | fluorescence polarization | 0.094 a.u. and 0.0479 a.u. |
| O=C(CCCCCCCCCN=C=S)CC(=O)N[C@H]1CCOC1=O | lasR | reporter gene, agonist | Escherichia coli JLD271 | 10 µM, pSC11 and pJN105L plasmids | baseline: OdDHL at same concentration | agonist activity | 92% |
| C=CC(=O)Nc1cc(-c2ccc(C(=O)N3CCCC(O)(CC)C3)cc2)ccc1F (stereo not shown) | DNA dC->dU-editing enzyme APOBEC-3B, C-terminal domain (Homo sapiens, UniProt Q9UH17) | covalent adduct, intact protein MS |  | 5 h, 10-fold excess, 250 µM |  | unmodified protein | 36% |
| C#CCCCCOc1ccc2c(c1)CCCN2C(=O)CCl | Dual specificity mitogen-activated protein kinase kinase 7 (MAP2K7, Homo sapiens, UniProt O14733) | mass spectrometry profiling | H460 cell lysate | 100 µM over 10 µM, UniProt O14733 | baseline: high over low concentration | reactivity ratio | 1.47 |
| O=C(Cc1ccc(Br)cc1)N[C@H]1CCSC1=O | sdiA |  |  |  |  | Emax | 91% |
| CS(C)(=O)=Nc1ccc(-c2ccc(-c3nc4cc(O[C@@H]5CO[C@H]6[C@@H]5OC[C@H]6O)[nH]c4cc3F)cc2)cc1 | Mitogen-activated protein kinase kinase kinase kinase 2 (MAP4K2, Homo sapiens, UniProt Q12851) | enzyme activity, inhibitor |  | 10 µM |  | inhibition | -1% |
| O=C1NC(=O)c2c1c1cc(F)c[n+]3c1c1c2c2cc(O)ccc2[n]1[Ru-4]312([N]=C=S)[S+]3CC[S+]1CC[S+]2CC3 (stereo not shown) | Calcium/calmodulin-dependent protein kinase type IV (CAMK4, Homo sapiens, UniProt Q16566) | enzyme activity |  | 100 nM, human enzyme, together with: 10 µM ATP | baseline: untreated | remaining activity | 11% |
| COc1ccccc1-c1n[nH]c2nc(NC3CCN(C(=O)Cc4ccc(F)cc4F)CC3)ncc12 | Leishmania donovani kinase LINJ.30.1580 | bead binding competition | Leishmania donovani extract | 10 µM | baseline: vehicle | relative abundance | 0.4 |
| CC(C)[C@@H]1NC(=O)[C@H](CC(N)=O)NC(=O)CNC(=O)[C@H](CC(N)=O)NC(=O)[C@H](C)NC(=O)[C@H](CC(=O)O)NC(=O)[C@H]([C@@H](C)O)NC(=O)[C@H](CCC(=O)O)NC(=O)CNC(=O)[C@H]([C@@H](C)O)NC(=O)[C@H](CCC(=O)O)NC(=O)[C@H](CCC(=O)O)NC(=O)[C@H](CC(=O)O)NC1=O | KEAP1 | Keap1-Nrf2 binding, inhibitor, competitive FP |  | 0.0244 µM, 30 min, together with: Nrf2 peptide probe | lower = stronger inhibition | fluorescence polarization | 1.06 a.u. and 0.938 a.u. |
| Cc1cc(O)cc(C)c1C[C@H](N)C(=O)N[C@H](CCCNC(=N)N)C(=O)N[C@@H](Cc1ccccc1)C(=O)N[C@@H](CCCCN)C(=O)NCCCCCCCCNC(=O)[C@H](Cc1ccccc1)NC(=O)[C@H](CC1CCCCC1)NC[C@@H]1Cc2ccccc2CN1C(=O)[C@@H](N)Cc1ccc(O)cc1 | Oprm1 | binding | rat brain membranes | together with: [3H]DAMGO | baseline: Ki mu over Ki delta | selectivity ratio | 3.92 |
| CN(C)[C@H]1C[C@@]23CC[C@@]4(O2)C(=CC[C@]2(C)[C@@H](c5ccc6ccncc6c5)CC[C@H]24)C=C3[C@@H](O)[C@@H]1O | Mitogen-activated protein kinase kinase kinase 20 (MAP3K20, Homo sapiens, UniProt Q9NYL2) | ATP probe labelling, inhibitor, KiNativ profiling |  | 1 µM |  | inhibition | -5.5% |
| CSc1cccc(CC(=O)N[C@H]2CCOC2=O)c1 | sdiA |  |  |  |  | Emax | 102% |
| CCCO[C@H]1[C@H](O)[C@@H](N)[C@@H](O[C@H]2[C@H](O[C@@H]3O[C@H](CO)[C@@H](O[C@H]4O[C@@H](CN)[C@@H](O)[C@H](O)[C@H]4N)[C@H]3O)[C@@H](O)[C@H](N)C[C@@H]2N)O[C@@H]1CO | Amine oxidase [flavin-containing] A (Maoa, Rattus norvegicus, UniProt P21396) | radioligand binding |  | 10 µM, 1% DMSO |  | specific binding | 2% |

| SMILES | target | assay | test system | setting | how to read | quantity | value |
| --- | --- | --- | --- | --- | --- | --- | --- |
| CCCCCCC(=O)N[C@H]1CCOC1=O | lasR | reporter gene, agonist | Pseudomonas aeruginosa PAO-JP2 | 100 µM, plasI-LVAgfp reporter | baseline: OdDHL at same concentration | agonist activity | -2% |
| O=C(N1CCCCC1)n1ccnn1 | Cytosolic acyl coenzyme A thioester hydrolase (Acot7, Mus musculus, UniProt Q91V12) | enzyme activity, inhibitor, competitive ABPP-SILAC, measured: Acot7 | mouse T-cells | concentration not given, 4 h, treated in situ | baseline: DMSO | activity ratio | 1.55 |
| O=C(O)c1cccc(CP(=O)(O)O)n1 | Metallo-beta-lactamase type 2 (blaNDM-1, Klebsiella pneumoniae, UniProt C7C422) | enzyme activity, inhibitor |  | together with: nitrocefin |  | kon | 51700 ± 10000 M⁻¹ s⁻¹ |
| CC(C)[C@H]1NC(=O)C[C@H]2/C=C/CCSSC[C@@H](NC1=O)C(=O)N[C@H](Cc1cccc3ccccc13)C(=O)NCC(=O)O2 | Mitogen-activated protein kinase kinase kinase 8 (MAP3K8, Homo sapiens, UniProt P41279) | enzyme activity, inhibitor |  | 10 µM |  | inhibition | 9.8% |
| O=C(CCCc1ccccc1)NC1CCOC1=O (stereo not shown) | lasR | reporter gene, agonist | Escherichia coli JLD271 | 10 µM, pSC11 and pJN105L plasmids | baseline: OdDHL at same concentration | agonist activity | -1% |
| CCOC(=O)[C@@H]1Cc2c(cc([N+](=O)[O-])cc2[N+](=O)[O-])[C@H](O)[C@]12C(=O)Nc1ccc(Br)cc12 | Cyclin-dependent kinase 3 (CDK3, Homo sapiens, UniProt Q00526) | KINOMEscan |  | 100 nM | baseline: DMSO control | remaining binding | 41% |
| CCCC[C@H]1CNCCN1C[C@@H]1CCCN1C[C@H](CC1CCCCC1)N1CCN(CCCC2CCCC2)[C@H]([C@@H](C)O)C1 | Oprm1 | radioligand binding | rat brain membranes | 500 nM, pH 7.5, 25 °C, together with: 0.87 nM [3H]DAMGO |  | remaining binding | 105 ± 10.5% |
| CN(C)CCCSC(=S)N1CCN(C(=O)/C=C/c2coc3ccccc3c2=O)CC1 | Nucleoprotein (N, Tomato spotted wilt virus, UniProt P25999, Y184A) | binding, microscale thermophoresis |  | 31.25 µM | dose series | MST response | 840 a.u. |
| CCc1nnc(-c2c(OC)cc(-c3cnc4cc(-c5cnn(C)c5)ccn34)cc2OC)o1 | Prostaglandin G/H synthase 1 (PTGS1, Homo sapiens, UniProt P23219) |  |  | 10 µM |  | inhibition of specific binding | -48% |
| COc1ccccc1-c1n[nH]c2nc(N[C@H]3CC[C@H](NS(=O)(=O)CC(C)C)CC3)ncc12 | cyclin 9 (Leishmania donovani, UniProt A0A2D1QVA3) | competitor, bead pull-down competition | Leishmania donovani extract | 2 µM | baseline: vehicle | remaining binding | 7% |
| CC(C)CC(O)(CC(C)C)c1cn(C(=O)N2CCCC2)nn1 | GPI inositol-deacylase (Pgap1, Mus musculus, UniProt Q3UUQ7) | probe labelling, inhibitor, measured: Pgap1 | mouse, brain | i.p., 0.8 mg/kg, 4 h, protein level | baseline: treated over vehicle mice, lower = stronger inhibition | activity ratio-of-ratios | 1.25 |
| C#CCOc1ccc(-c2nc(C)c(C(=O)OCC)s2)cc1/C=N/NC(=O)C=C | Omega-amidase NIT2 (NIT2, Homo sapiens, UniProt Q9NQR4) | cysteine labelling, gel-based live-cell labelling | HEK-293T | strong ligand-dependent labelling |  | labelling concentration | 0.1 to 0.5 µM |
| CC[C@@H](C)[C@@H]1CN([C@@H](CC2CCCCC2)CN2CCC[C@H]2CN2CCNC[C@@H]2Cc2ccc3ccccc3c2)CCN1CCC12CC3CC(CC(C3)C1)C2 | Oprm1 | radioligand binding | rat brain membranes | 500 nM, pH 7.5, 25 °C, together with: 0.87 nM [3H]DAMGO |  | remaining binding | 103 ± 11.3% |
| COc1cc2c(cc1S(=O)(=O)F)C(=O)NCCC2 | Uncharacterized hydrolase SAUSA300_2518 | enzyme activity, inhibitor, fluorogenic substrate |  | 0.1 µM |  | remaining activity | 92.5% and 93.2% and 92.6% |
| CC[C@H](C)[C@H](NC(=O)CCNC(=S)Nc1ccc2c(c1)C(=O)OC21c2ccc(O)cc2Oc2cc(O)ccc21)C(=O)N[C@@H](CCC(N)=O)C(=O)N[C@@H](CC(=O)O)C(=O)N[C@@H](CC(C)C)C(=O)N[C@@H](CCCNC(=N)N)C(=O)N[C@@H](CCCNC(=N)N)C(=O)N[C@@H](CCCNC(=N)N)C(=O)N[C@@H](Cc1ccccc1)C(=O)N[C@@H](Cc1ccccc1)C(=O)N[C@@H](CC(C)C)C(=O)N[C@@H](Cc1c[nH]cn1)C(=O)N[C@@H](Cc1c[nH]cn1)C(=O)N[C@@H](CC(C)C)C(=O)N[C@H](C(=O)N[C@@H](C)C(=O)N[C@@H](CCC(=O)O)C(=O)N[C@H](CC(=O)N[C@@H](Cc1c[nH]cn1)C(=O)N[C@H](C(=O)N[C@@H](C)C(=O)N[C@H](CNC(=O)C[C@@H](N)Cc1ccc(O)cc1)C(N)=O)[C@@H](C)O)Cc1ccc2ccccc2c1)[C@@H](C)CC | Parathyroid hormone/parathyroid hormone-related peptide receptor, extracellular domain (PTH1R, Homo sapiens, UniProt Q03431) | fluorescence polarization | isolated ECD | concentration not given | baseline: native segment | relative binding affinity | ~3 fold |
| O=C(Nc1ccccc1NC(=O)c1cccc(Cl)c1)c1cccc(Cl)c1 | lasR | reporter gene, agonist | Escherichia coli JLD271 | 10 µM, pSC11 and pJN105L plasmids | baseline: OdDHL at same concentration | agonist activity | 0% |
| C/C(=N\OCCCN1CCCCC1)c1ccc(C(F)(F)F)cc1 | Vasopressin V1a receptor (AVPR1A, Homo sapiens, UniProt P37288) | agonist, IP-One |  | 10 µM |  | activation | -0.38% |

Excerpt of the above:
| SMILES | target | assay | test system | setting | how to read | quantity | value |
| --- | --- | --- | --- | --- | --- | --- | --- |
| COc1ccccc1-c1n[nH]c2nc(N[C@H]3CC[C@H](NS(=O)(=O)CC(C)C)CC3)ncc12 | cyclin 9 (Leishmania donovani, UniProt A0A2D1QVA3) | competitor, bead pull-down competition | Leishmania donovani extract | 2 µM | baseline: vehicle | remaining binding | 7% |
| N[C@H](C(=O)N1CCCC1)C1CCN(c2nccc3c(-c4ncc(Cl)cc4Cl)cccc23)CC1 | Protein-arginine deiminase type-4 (PADI4, Homo sapiens, UniProt Q9UM07) | enzyme activity |  | 1.536 µM, high-affinity site, together with: Ca2+ 1.5 mM |  | kcat | 0.699 s⁻¹ and 0.667 s⁻¹ |
| CCCC[C@H]1CNCCN1C[C@@H]1CCCN1C[C@H](CC1CCCCC1)N1CCN(CCCC2CCCC2)[C@H]([C@@H](C)O)C1 | Oprm1 | radioligand binding | rat brain membranes | 500 nM, pH 7.5, 25 °C, together with: 0.87 nM [3H]DAMGO |  | remaining binding | 105 ± 10.5% |
| C/C(=N\OCCCN1CCCCC1)c1ccc(C(F)(F)F)cc1 | Vasopressin V1a receptor (AVPR1A, Homo sapiens, UniProt P37288) | agonist, IP-One |  | 10 µM |  | activation | -0.38% |
